Experimental data pooled from the literature.
Each numbered part is a random draw from the data of one study; scales do not carry over between parts.
UniProt Q9H2K8, sequence (whole entry, looked up): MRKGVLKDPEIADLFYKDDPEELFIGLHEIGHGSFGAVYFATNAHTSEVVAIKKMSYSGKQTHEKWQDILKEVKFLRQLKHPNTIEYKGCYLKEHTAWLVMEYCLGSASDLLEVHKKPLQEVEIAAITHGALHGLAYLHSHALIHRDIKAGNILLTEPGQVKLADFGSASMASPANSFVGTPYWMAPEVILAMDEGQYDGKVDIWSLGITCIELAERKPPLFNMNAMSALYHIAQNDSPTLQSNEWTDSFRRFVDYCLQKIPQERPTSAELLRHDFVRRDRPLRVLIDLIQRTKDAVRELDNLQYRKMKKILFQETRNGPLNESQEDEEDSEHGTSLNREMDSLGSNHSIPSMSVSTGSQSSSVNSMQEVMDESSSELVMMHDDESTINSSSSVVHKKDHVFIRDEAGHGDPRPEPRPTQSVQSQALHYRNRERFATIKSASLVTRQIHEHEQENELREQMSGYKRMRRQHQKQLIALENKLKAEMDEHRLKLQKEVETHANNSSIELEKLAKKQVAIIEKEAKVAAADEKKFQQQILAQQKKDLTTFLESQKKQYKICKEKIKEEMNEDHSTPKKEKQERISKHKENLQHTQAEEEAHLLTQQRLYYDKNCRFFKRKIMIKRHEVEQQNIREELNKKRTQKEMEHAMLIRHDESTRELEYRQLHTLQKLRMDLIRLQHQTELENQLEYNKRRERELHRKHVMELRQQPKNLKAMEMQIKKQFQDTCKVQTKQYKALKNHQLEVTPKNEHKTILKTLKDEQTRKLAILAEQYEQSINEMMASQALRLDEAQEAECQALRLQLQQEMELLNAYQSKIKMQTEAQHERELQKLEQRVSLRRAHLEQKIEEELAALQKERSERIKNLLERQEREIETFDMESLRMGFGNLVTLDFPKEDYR

Study 1 — technique: competition protein-binding microarray; molecule type: double-stranded DNA, one strand shown; medium: in vitro; tested at: 2 µM; together with: Pho4 competitor, 0.05 µM; direction: higher = stronger binding
Target: Centromere-binding protein 1, full length, His-tagged (CBF1, Saccharomyces cerevisiae, UniProt P17106, residues 1-351)
UniProt P17106, sequence (whole entry, looked up): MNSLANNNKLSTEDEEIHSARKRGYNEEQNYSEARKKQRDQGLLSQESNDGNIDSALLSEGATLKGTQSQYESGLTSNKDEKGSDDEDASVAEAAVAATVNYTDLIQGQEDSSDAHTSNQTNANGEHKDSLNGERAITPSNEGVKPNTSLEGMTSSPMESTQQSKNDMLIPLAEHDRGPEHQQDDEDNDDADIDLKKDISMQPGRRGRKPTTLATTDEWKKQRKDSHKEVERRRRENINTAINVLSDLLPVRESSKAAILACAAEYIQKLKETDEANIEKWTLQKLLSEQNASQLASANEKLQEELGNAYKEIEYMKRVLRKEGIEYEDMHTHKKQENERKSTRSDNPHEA
Notes: whole 60-bp probe, lowest competitor level
With `AACTGCCAATACCGTCACGTTATGGAAGGTGAAGTGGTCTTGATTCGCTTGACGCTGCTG` the fluorescence intensity was 384 a.u.
With `AATGTCGACCTTTTGGACGTGGGTACATGGACGAGCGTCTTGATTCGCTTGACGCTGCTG` the fluorescence intensity was 55.6 a.u.
The fluorescence intensity of `AGGAACTTGAGCGTAAACGTGGACGTCTGCCTGTCGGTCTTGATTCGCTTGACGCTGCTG` is reported as 64.5 a.u.
`GTCTCTGCTTTTCCACACGTGGAAGTTCACCAAGAAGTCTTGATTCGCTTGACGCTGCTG` has a fluorescence intensity of 434 a.u.
`AAACATCAAATCCATCACGTGCTTTTTAAAAAATATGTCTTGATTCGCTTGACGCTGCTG` gave a fluorescence intensity of 9070 a.u.
The fluorescence intensity of `GCGAATAATATGTTTTGCGTGGGTATCCCAGGAGCGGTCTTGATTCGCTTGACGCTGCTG` is reported as 70.8 a.u.
The fluorescence intensity of `GACACATCGCTAGAAAAATTGGCATTACTAGAAAGCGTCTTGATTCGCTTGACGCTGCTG` is reported as 82.3 a.u.
With `GCGCAATTCGCCAAGTTCGTGACGGAATTCTTCGGGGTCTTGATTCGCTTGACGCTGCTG` the fluorescence intensity was 77.4 a.u.

Study 2 — technique: universal PBM; molecule type: double-stranded DNA, one strand shown; medium: in vitro; tested at: not given; direction: higher = stronger binding
Target: Sal-like protein 4, full length isoform B (SALL4, Homo sapiens, UniProt Q9UJQ4-2, residues 1-616)
Notes: 8-mer, flanks averaged, mean of replicates
Construct (chain): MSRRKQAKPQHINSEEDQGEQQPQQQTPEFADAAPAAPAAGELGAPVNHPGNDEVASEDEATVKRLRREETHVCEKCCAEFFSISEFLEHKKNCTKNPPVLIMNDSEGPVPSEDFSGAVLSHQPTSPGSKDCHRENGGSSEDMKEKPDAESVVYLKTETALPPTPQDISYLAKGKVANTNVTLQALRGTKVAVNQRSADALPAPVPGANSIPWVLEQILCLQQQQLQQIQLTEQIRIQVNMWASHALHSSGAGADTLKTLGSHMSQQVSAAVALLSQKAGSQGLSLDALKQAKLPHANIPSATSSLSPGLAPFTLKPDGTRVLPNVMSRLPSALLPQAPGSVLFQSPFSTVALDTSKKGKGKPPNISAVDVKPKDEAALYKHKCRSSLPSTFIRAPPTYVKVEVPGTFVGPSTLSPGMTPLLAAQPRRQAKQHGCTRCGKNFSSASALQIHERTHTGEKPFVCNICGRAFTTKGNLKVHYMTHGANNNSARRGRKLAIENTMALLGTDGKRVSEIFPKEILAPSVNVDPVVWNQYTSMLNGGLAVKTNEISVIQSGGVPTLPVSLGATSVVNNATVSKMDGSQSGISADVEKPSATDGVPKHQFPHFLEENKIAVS
With `TCACGCGA` the E-score was -0.0766.
`ATCTGGAC` has an E-score of -0.111.
`ACTACACG` has an E-score of 0.0758.
`ACGGATCT` gave an E-score of -0.154.
With `ATACCATA` the E-score was 0.309.
`TGAGCAAA` has an E-score of 0.0285.
The E-score of `CCTGGCCA` is reported as -0.144.
For `AGGAACTG`, the E-score was -0.0937.

Other studies, line by line
With `FC(F)(F)c1ccc(/C=C/c2nc(COc3ccc(CCCCn4ccnn4)cc3)co2)cc1` the remaining activity was 93% (Serine/threonine-protein kinase TAO3 (TAOK3, Homo sapiens, UniProt Q9H2K8); enzyme activity, inhibitor; 0.5 µM; reference: control).
`PhoQ, residues 284 288 289 292 302 303 ASHLAV` has a fold induction of 1.19 (PhoP, residues 12 14 15 18 19 NQAHL (Escherichia coli, UniProt P23836); Sort-seq, item: YFP reporter; E. coli; PhoQ-PhoP variant library, together with: 10 µM Mg2+; reference: high Mg2+ state, higher = stronger signaling).

A few entries again (study 1):
`AAACATCAAATCCATCACGTGCTTTTTAAAAAATATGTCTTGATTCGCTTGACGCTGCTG` gave a fluorescence intensity of 9070 a.u.
The fluorescence intensity of `AGGAACTTGAGCGTAAACGTGGACGTCTGCCTGTCGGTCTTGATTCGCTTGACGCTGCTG` is reported as 64.5 a.u.
